Assay results gathered from unrelated publications.
A part holds a random share of what one study measured. Positions count from the first letter of the parent shown.

Series 1
Target: HLA class I histocompatibility antigen, A alpha chain, allele A*25:01 (Homo sapiens, UniProt P04439)
Observed: peptide-MHC binding
Molecule type: peptide
Tested at: concentration not given
Sequence | binding
YMLMGFQLK | inactive
FATPAFFLI | inactive
ALYEENALK | inactive
RWASGVSEI | inactive

Series 2
Target: CCNB1, cyclin fold, Cln2 fusion (human)
Method: yeast growth competition, sequencing
Medium: yeast
Setting: strong parent motif
Relative to: not given
Reading: higher = stronger binding
Starting sequence: viral docking peptide; TSVRRALFTGGSD
Change | normalised enrichment score
L7Q | -0.0363
R5A L7A | 0.04
S12M | 2.16
F8W | 0.52
G10T | 2.25
G10Q | 2.01
S12H | 1.84
G10V | 1.59
T9D | 1.83
G11D | 3.5
R4L | 0.119
R5N | 0.165
F8H | 0.08
L7I | 0.106
G11Q | 2.61
A6N | 0.686
R5W | 0.149
S12C | 2.38
T9I | 1.88
G11K | 1.45
A6Q | 2.29
S2L | 1.03
V3G | -0.203
T9L | 1.91
T9G | 1.66

Series 3
Target: UBE2A UBC core domain (UniProt P49459)
Chain of UniProt P49459 (whole entry, looked up): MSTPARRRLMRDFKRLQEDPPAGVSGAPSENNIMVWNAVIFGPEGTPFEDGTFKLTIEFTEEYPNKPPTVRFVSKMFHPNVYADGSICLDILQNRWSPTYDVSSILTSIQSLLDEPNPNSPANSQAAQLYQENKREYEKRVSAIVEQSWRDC
Method: yeast two-hybrid
Medium: yeast
Setting: mostly zero background
Relative to: not given
Reading: higher = stronger interaction
B1: TRIM48 RING domain (UniProt Q8IWZ4); chain ISQVFQRELTCPICMNYFIDPVTIDCGHSFCRPCFYLNWQDIPILTQCFECIKTIQQRNLKT
B2: DTX1 RING domain (UniProt Q86Y01); chain QKVKNPPDEDCTICMERLVTASGYEGVLRHKGVRPELVGRLGRCGHMYHLLCLVAMYSNGNKDGSLQCPTCKAIYGEKTGTQ
B3: RNF135 RING domain (UniProt Q8IUD6); chain PVWLAEDDLGCIICQGLLDWPATLPCGHSFCRHCLEALWGARDARRWACPTCRQGAAQQPHLR
B4: RNF24 RING domain (UniProt Q9Y225); chain KVKELNLHELCAVCLEDFKPRDELGICPCKHAFHRKCLIKWLEVRKVCPLCNMPVLQLAQLH
Sequence | lacZ reporter activity
B1 (TRIM48 RING domain) | 0
B2 (DTX1 RING domain) | 0
B3 (RNF135 RING domain) | 0
KLWDINAHITCRLCSGYLIDATTVTECLHTFCRSCLVKYLEENNTCPTCRIVIHQSHPLQ (PCGF3 RING domain (UniProt Q3KNV8)) | 0
B4 (RNF24 RING domain) | 0

Series 4
Target: Prothrombin, mature alpha-thrombin (F2, Homo sapiens, UniProt P00734)
Method: aptamer microarray, sandwich
Molecule type: DNA with 2'F-ANA
Medium: in vitro
Tested at: 200 nM
Setting: whole 15-mer aptamer, many near background
With: Cy3 exosite-II aptamer, 400 nM
Reading: higher = stronger binding
Strand: GGTTGGTGTGGTTGG
Modification | mean fluorescence intensity
2'F-ANA at 3 4 13 14 | 346 a.u.
2'F-ANA at 3 4 5 9 13 14 | 49.6 a.u.
2'F-ANA at 1 4 5 7 8 9 10 11 14 | 45.1 a.u.
2'F-ANA at 3 6 11 | 876 a.u.
2'F-ANA at 1 3 6 7 9 10 13 | 79.6 a.u.
2'F-ANA at 1 2 7 8 9 14 | 59.5 a.u.
2'F-ANA at 1 4 6 7 8 12 13 | 211 a.u.
2'F-ANA at 3 6 8 9 11 12 13 14 | 523 a.u.

Series 5
Target: Phosphate system positive regulatory protein PHO4, full length, GST-tagged (PHO4, Saccharomyces cerevisiae, UniProt P07270, residues 1-312)
Method: competition protein-binding microarray
Molecule type: double-stranded DNA, one strand shown
Medium: in vitro
Tested at: 2 µM
Setting: whole 60-bp probe, lowest competitor level
With: Cbf1 competitor, 0.05 µM
Reading: higher = stronger binding
Construct (chain): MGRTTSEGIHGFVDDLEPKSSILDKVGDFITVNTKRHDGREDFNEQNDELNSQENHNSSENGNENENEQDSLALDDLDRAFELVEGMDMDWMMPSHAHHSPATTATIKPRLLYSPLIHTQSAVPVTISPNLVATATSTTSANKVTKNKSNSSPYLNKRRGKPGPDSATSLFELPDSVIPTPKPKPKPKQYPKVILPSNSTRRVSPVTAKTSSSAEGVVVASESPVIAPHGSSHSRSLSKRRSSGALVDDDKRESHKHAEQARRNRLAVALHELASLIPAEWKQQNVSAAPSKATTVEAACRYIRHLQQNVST
Strand | fluorescence intensity
GAAACAATATAACAGCACGTGTTGGAACGGTACACAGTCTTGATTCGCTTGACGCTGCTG | 18400 a.u.
CGGGGTTAAGTTTGTCACTTGACTTGCTTGCAGCAGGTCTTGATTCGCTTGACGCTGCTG | 3010 a.u.
GCGCCGTTCTCCACAGCCGTGATGGCTAAAGTGGCGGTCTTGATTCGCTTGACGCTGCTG | 3270 a.u.
CTAACGAAGGTTTGACATGTGGGTGACAAGCCAAGTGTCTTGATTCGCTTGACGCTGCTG | 12700 a.u.
CTTTCCCGATCTTTTCACGTGACGTTAGCACATTTGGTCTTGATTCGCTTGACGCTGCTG | 14300 a.u.
TGCGCAACAACTTTTCACGTGCCCTTATGTCTAGAAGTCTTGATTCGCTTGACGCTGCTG | 14500 a.u.
GAATATGAATGTTCCCTTAATCAGCCGGGATAATCTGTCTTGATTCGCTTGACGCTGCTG | 2880 a.u.
CATACCCAACCTTGTCACTTTACTTAAGATATTTGTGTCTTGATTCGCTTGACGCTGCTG | 3760 a.u.

Some of these lines once more (series 2):
Change | normalised enrichment score
G10T | 2.25
G10Q | 2.01
S12H | 1.84
G10V | 1.59
T9D | 1.83
G11D | 3.5
R4L | 0.119
R5N | 0.165
